Measured values of several laboratories.
Each line is one published result; not all experiments were run side by side.
Organism: Pseudomonas aeruginosa

| Compound | assay | test system | conditions | MIC |
| --- | --- | --- | --- | --- |
| CC[C@H](C)[C@H](NC(=O)[C@@H](CCCNC(=N)N)NC(=O)[C@H](CCCNC(=N)N)NC(=O)[C@@H]1CCCN1C(=O)[C@@H]1CCCN1C(=O)[C@H](Cc1c[nH]cn1)NC(=O)[C@@H]1CCCN1C(=O)[C@H](CCCNC(=N)N)NC(=O)[C@@H]1CCCN1C(=O)[C@H](CC(C)C)NC(=O)[C@H](Cc1ccc(O)cc1)NC(=O)[C@@H]1CCCN1C(=O)[C@@H]1CCCN1C(=O)[C@H](CCCCN)NC(=O)[C@H](CC(=O)O)NC(=O)[C@@H](N)C(C)C)C(=O)N[C@@H](Cc1ccc(O)cc1)C(=O)N[C@@H](CC(N)=O)C(=O)N[C@H](CCCNC(=N)N)C(N)=O | broth microdilution | DSM 1117 | 18 h, 37 °C, 25% MHB2 | 128 µg/mL |
| CC(C)C[C@H](NC(=O)[C@H](CCCCN)NC(=O)C1CCC=CCCC(NC(=O)[C@H](CCCCN)NC(=O)[C@@H](N)CC(C)C)C(=O)N[C@@H](CCCCN)C(=O)N[C@@H](CC(C)C)C(=O)N[C@@H](CCCCN)C(=O)N2CCC[C@@H]2C(=O)NCC(=O)N[C@@H](CCCCN)C(=O)N[C@@H](CC(C)C)C(=O)N[C@@H](CCCCN)C(=O)N1)C(N)=O (stereo partly shown) | broth microdilution | ATCC 9027, Mueller-Hinton broth | 18 h, 37 °C | 8 µM |
| CC[C@H](C)[C@H](NC(=O)[C@@H](CCCNC(=N)N)NC(=O)[C@H](CCCNC(=N)N)NC(=O)[C@@H]1CCCN1C(=O)[C@@H]1CCCN1C(=O)[C@H](CCCNC(=N)N)NC(=O)[C@@H]1CCCN1C(=O)[C@H](CCCNC(=N)N)NC(=O)[C@@H]1CCCN1C(=O)[C@H](CC(C)C)NC(=O)[C@H](Cc1ccc(O)cc1)NC(=O)[C@@H]1CCCN1C(=O)[C@H](Cc1ccc(O)cc1)NC(=O)[C@H](CCCCN)NC(=O)[C@H](CC(=O)O)NC(=O)[C@@H](N)C(C)C)C(=O)N[C@@H](Cc1ccc(O)cc1)C(=O)N[C@@H](CC(N)=O)C(=O)N[C@H](CCCNC(=N)N)C(N)=O | broth microdilution | DSM 1117 | 18 h, 37 °C, 25% MHB2 | 128 µg/mL |
| CC[C@H](C)[C@H](NC(=O)[C@H](CCCCN)NC(=O)[C@H](CCCNC(=N)N)NC(=O)[C@H](Cc1c[nH]c2ccccc12)NC(=O)[C@@H](NC(=O)[C@H](CCCCN)NC(=O)[C@H](CCCNC(=N)N)NC(=O)[C@@H](NC(=O)[C@H](CCCNC(=N)N)NC(=O)[C@H](CCCCN)NC(=O)[C@H](CCCNC(=N)N)NC(=O)[C@H](CC(C)C)NC(=O)[C@H](CCCNC(=N)N)NC(=O)[C@H](CO)NC(=O)[C@H](Cc1ccccc1)NC(=O)[C@H](CCCNC(=N)N)NC(=O)CN)[C@@H](C)CC)C(C)C)C(=O)NCC(=O)N1CCC[C@H]1C(=O)N[C@H](C(=O)N[C@@H](C)C(=O)NCC(=O)N1CCC[C@H]1C(=O)N[C@H](C(=O)N[C@H](C(=O)NCC(=O)N[C@@H](Cc1c[nH]cn1)C(=O)N[C@@H](Cc1ccccc1)C(=O)NCC(=O)O)[C@@H](C)CC)[C@@H](C)CC)[C@@H](C)CC | CLSI agar dilution | ATCC 27853 | 20 h, 37 °C | 16 µg/mL |
| CN[C@H](CC(C)C)C(=O)N[C@H]1C(=O)N[C@@H](CC(N)=O)C(=O)N[C@H]2C(=O)N[C@H]3C(=O)N[C@H](C(=O)N[C@H](C(=O)NCc4cn(CC(=O)N[C@H](C(=O)N[C@@H](CCN)C(=O)N[C@H]5CCNC(=O)[C@H]([C@@H](C)O)NC(=O)[C@H](CCN)NC(=O)[C@H](CCN)NC(=O)[C@H](CC(C)C)NC(=O)[C@@H](CC(C)C)NC(=O)[C@H](CCN)NC5=O)[C@@H](C)O)nn4)c4cc(O)cc(O)c4-c4cc3ccc4O)[C@H](O)c3ccc(c(Cl)c3)Oc3cc2cc(c3O[C@@H]2O[C@H](CO)[C@@H](O)[C@H](O)[C@H]2O[C@H]2C[C@](C)(N)[C@H](O)[C@H](C)O2)Oc2ccc(cc2Cl)[C@H]1O | broth microdilution | ATCC 27853, cation-adjusted Mueller-Hinton broth | – | 6 µM |
| CC[C@H](C)[C@H](NC(=O)[C@H](CC(C)C)NC(=O)[C@H](CCCNC(=N)N)NC(=O)CNC(=O)CNC(=O)[C@H](CCCCN)NC(=O)[C@H](CCCNC(=N)N)NC(=O)[C@H](CC(C)C)NC(=O)[C@H](CC(C)C)NC(=O)[C@H](CCCNC(=N)N)NC(=O)[C@@H](NC(=O)[C@H](CC(C)C)NC(=O)[C@@H](N)CO)[C@@H](C)O)C(=O)NCC(=O)N[C@@H](Cc1c[nH]c2ccccc12)C(=O)N[C@@H](CCCNC(=N)N)C(=O)N[C@@H](Cc1c[nH]c2ccccc12)C(=O)N[C@@H](CCC(=O)O)C(=O)N[C@@H](CCCCN)C(=O)N[C@H](C(=O)N[C@@H](CCCNC(=N)N)C(=O)N[C@@H](CC(N)=O)C(=O)N[C@@H](Cc1c[nH]c2ccccc12)C(=O)N[C@H](C(=O)N[C@@H](CCCNC(=N)N)C(=O)N[C@@H](CCCNC(=N)N)C(=O)N[C@H](C(=O)N[C@H](C(=O)N[C@@H](CCC(=O)O)C(=O)N[C@@H](CCCCN)C(=O)N[C@@H](CCCNC(=N)N)C(=O)N[C@@H](CCCCN)C(=O)N1CCC[C@H]1C(=O)N[C@@H](CC(N)=O)C(=O)N[C@@H](CCCCN)C(=O)O)[C@@H](C)CC)[C@@H](C)CC)[C@@H](C)CC)[C@@H](C)O | broth microdilution | ATCC 27853, Mueller-Hinton broth | 16 to 20 h, 37 °C | 8.79 µg/mL |
| CC(C)C[C@@H]1NC(=O)[C@@H](CC(C)C)NC(=O)[C@H](CCN)NC(=O)[C@@H](NC(=O)[C@H](CCN)NC(=O)[C@@H](NC(=O)CCCCN=[N+]=[N-])[C@@H](C)O)CCNC(=O)[C@H]([C@@H](C)O)NC(=O)[C@H](CCN)NC(=O)[C@H](CCN)NC1=O | broth microdilution | ATCC 13883, cation-adjusted Mueller-Hinton broth | – | 4 µM |
| CC[C@H](C)[C@H](NC(=O)[C@H](CCCCN)NC(=O)[C@H](Cc1c[nH]c2ccccc12)NC(=O)[C@H](Cc1c[nH]c2ccccc12)NC(=O)[C@H](CCCCN)NC(=O)[C@H](CCCCN)NC(=O)[C@H](CCCCN)NC(=O)[C@H](Cc1c[nH]c2ccccc12)NC(=O)[C@H](CCCCN)NC(=O)[C@H](CCCCN)NC(=O)[C@H](Cc1c[nH]c2ccccc12)NC(=O)[C@H](CCCCN)NC(=O)[C@H](CCCCN)NC(=O)[C@@H](NC(=O)[C@@H](NC(=O)[C@H](CCCCN)NC(=O)[C@@H](N)CCCNC(=N)N)[C@@H](C)CC)[C@@H](C)CC)C(=O)N[C@@H](Cc1c[nH]c2ccccc12)C(=O)N[C@@H](Cc1c[nH]c2ccccc12)C(=O)N[C@@H](CCCCN)C(N)=O | broth microdilution | 01 | – | 2 µg/mL |
| CC(C)C[C@H](NC(=O)[C@@H](NC(=O)[C@H](CCCNC(=N)N)NC(=O)[C@H](CCC(N)=O)NC(=O)[C@H](Cc1ccccc1)NC(=O)[C@H](Cc1ccc(O)cc1)NC(=O)[C@H](CC(N)=O)NC(=O)[C@H](Cc1c[nH]c2ccccc12)NC(=O)[C@@H](NC(=O)[C@H](CCCNC(=N)N)NC(=O)[C@H](CCCCN)NC(=O)[C@@H](N)Cc1ccccc1)C(C)C)C(C)C)C(=O)N[C@H](C(=O)N[C@@H](CCCCN)C(=O)N[C@@H](CCCCN)C(=O)N[C@@H](Cc1ccc(O)cc1)C(N)=O)C(C)C | broth dilution | ATCC 27853 | – | > 100 µM |
| CC[C@H](C)[C@H](NC(=O)[C@@H](CCCNC(=N)N)NC(=O)[C@H](CCCNC(=N)N)NC(=O)[C@H](Cc1ccccc1)NC(=O)[C@H](Cc1c[nH]c2ccccc12)NC(=O)[C@H](CCCNC(=N)N)NC(=O)[C@@H]1CCCN1C(=O)[C@H](CCCNC(=N)N)NC(=O)[C@@H]1CCCN1C(=O)[C@H](CC(C)C)NC(=O)[C@H](Cc1ccc(O)cc1)NC(=O)[C@@H]1CCCN1C(=O)[C@@H]1CCCN1C(=O)[C@H](CCCCN)NC(=O)[C@H](CC(=O)O)NC(=O)[C@@H](N)C(C)C)C(=O)N[C@@H](Cc1ccc(O)cc1)C(=O)N[C@@H](CC(N)=O)C(=O)N[C@H](CCCNC(=N)N)C(N)=O | broth microdilution | DSM 1117 | 18 h, 37 °C, 25% MHB2 | 128 µg/mL |
| CC(C)C[C@@H]1NC(=O)[C@@H](CC(C)C)NC(=O)[C@H](CCN)NC(=O)[C@@H](NC(=O)[C@H](CCN)NC(=O)[C@@H](NC(=O)CN=[N+]=[N-])[C@@H](C)O)CCNC(=O)[C@H]([C@@H](C)O)NC(=O)[C@H](CCN)NC(=O)[C@H](CCN)NC1=O | broth microdilution | ATCC 25922, cation-adjusted Mueller-Hinton broth | – | 63 µM |
| CCCCCCCC(=O)N[C@@H](CCN)C(=O)N[C@H](C(=O)N[C@@H](CCN)C(=O)N[C@H]1CCNC(=O)[C@H]([C@@H](C)O)NC(=O)[C@H](CCN)NC(=O)[C@H](CCN)NC(=O)[C@H](CCCCCC)NC(=O)[C@@H](Cc2ccccc2)NC(=O)[C@H](CCN)NC1=O)[C@@H](C)O | broth microdilution | PAO1, colistin-susceptible | – | < 0.125 µg/mL |
| C#CCNC(=O)[C@H]1NC(=O)[C@H]2NC(=O)[C@H](NC(=O)[C@@H]3NC(=O)[C@H](CC(N)=O)NC(=O)[C@H](NC(=O)[C@@H](CC(C)C)NC)[C@H](O)c4ccc(c(Cl)c4)Oc4cc3cc(c4O[C@@H]3O[C@H](CO)[C@@H](O)[C@H](O)[C@H]3O[C@H]3C[C@](C)(N)[C@H](O)[C@H](C)O3)Oc3ccc(cc3Cl)[C@H]2O)c2ccc(O)c(c2)-c2c(O)cc(O)cc21 | broth microdilution | ATCC 27853, cation-adjusted Mueller-Hinton broth | – | > 86 µM |
| CC(=O)N[C@@H](CC(C)C)C(=O)N[C@H]1CSSC[C@@H](C(=O)N2CCC[C@H]2C(N)=O)NC(=O)[C@H]([C@@H](C)O)NC(=O)[C@H](C(C)C)NC(=O)[C@H]([C@@H](C)O)NC(=O)CNC(=O)[C@H](CC(C)C)NC(=O)[C@H](Cc2ccccc2)NC(=O)[C@H](Cc2ccc(O)cc2)NC(=O)[C@H](CC(C)C)NC(=O)[C@H](CCCCN)NC(=O)[C@H](Cc2ccccc2)NC(=O)[C@H](CCCNC(=N)N)NC(=O)[C@H](CCC(N)=O)NC(=O)[C@H](CC(C)C)NC(=O)[C@H](CCCCN)NC(=O)[C@@H]2CCCN2C(=O)[C@H](CCCCN)NC(=O)[C@H](C(C)C)NC(=O)[C@H](CC(N)=O)NC(=O)[C@H](Cc2ccc(O)cc2)NC(=O)[C@H]([C@@H](C)O)NC1=O | broth dilution | CGMCC strain | 24 h | 20 to 40 µM |
| CN[C@H](CC(C)C)C(=O)N[C@H]1C(=O)N[C@@H](CC(N)=O)C(=O)N[C@H]2C(=O)N[C@H]3C(=O)N[C@H](C(=O)N[C@H](C(=O)N[C@@H](CCCNC(=N)N)C(N)=O)c4cc(O)cc(O)c4-c4cc3ccc4O)[C@H](O)c3ccc(c(Cl)c3)Oc3cc2cc(c3O[C@@H]2O[C@H](CO)[C@@H](O)[C@H](O)[C@H]2O[C@H]2C[C@](C)(NCc3ccc(OCc4cn(CC(=O)N[C@H](C(=O)N[C@@H](CCN)C(=O)N[C@H]5CCNC(=O)[C@H]([C@@H](C)O)NC(=O)[C@H](CCN)NC(=O)[C@H](CCN)NC(=O)[C@H](CC(C)C)NC(=O)[C@@H](CC(C)C)NC(=O)[C@H](CCN)NC5=O)[C@@H](C)O)nn4)c(OC)c3)[C@H](O)[C@H](C)O2)Oc2ccc(cc2Cl)[C@H]1O | broth microdilution | ATCC 27736, cation-adjusted Mueller-Hinton broth | – | 6 µM |
| CC(=O)N[C@H](Cc1ccc(Br)cc1)C(=O)N[C@@H](CCN)C(=O)N[C@H](C(=O)N[C@@H](CCN)C(=O)N[C@H]1CCNC(=O)[C@H]([C@@H](C)O)NC(=O)[C@H](CCN)NC(=O)[C@H](CCN)NC(=O)[C@H](CC(C)C)NC(=O)[C@@H](Cc2ccccc2)NC(=O)[C@H](CCN)NC1=O)[C@@H](C)O | broth microdilution | PAO1, colistin-susceptible | – | 0.125 to 0.25 µg/mL |

For quick reference, copied from above:
| Compound | assay | test system | conditions | MIC |
| --- | --- | --- | --- | --- |
| C#CCNC(=O)[C@H]1NC(=O)[C@H]2NC(=O)[C@H](NC(=O)[C@@H]3NC(=O)[C@H](CC(N)=O)NC(=O)[C@H](NC(=O)[C@@H](CC(C)C)NC)[C@H](O)c4ccc(c(Cl)c4)Oc4cc3cc(c4O[C@@H]3O[C@H](CO)[C@@H](O)[C@H](O)[C@H]3O[C@H]3C[C@](C)(N)[C@H](O)[C@H](C)O3)Oc3ccc(cc3Cl)[C@H]2O)c2ccc(O)c(c2)-c2c(O)cc(O)cc21 | broth microdilution | ATCC 27853, cation-adjusted Mueller-Hinton broth | – | > 86 µM |
| CC(=O)N[C@@H](CC(C)C)C(=O)N[C@H]1CSSC[C@@H](C(=O)N2CCC[C@H]2C(N)=O)NC(=O)[C@H]([C@@H](C)O)NC(=O)[C@H](C(C)C)NC(=O)[C@H]([C@@H](C)O)NC(=O)CNC(=O)[C@H](CC(C)C)NC(=O)[C@H](Cc2ccccc2)NC(=O)[C@H](Cc2ccc(O)cc2)NC(=O)[C@H](CC(C)C)NC(=O)[C@H](CCCCN)NC(=O)[C@H](Cc2ccccc2)NC(=O)[C@H](CCCNC(=N)N)NC(=O)[C@H](CCC(N)=O)NC(=O)[C@H](CC(C)C)NC(=O)[C@H](CCCCN)NC(=O)[C@@H]2CCCN2C(=O)[C@H](CCCCN)NC(=O)[C@H](C(C)C)NC(=O)[C@H](CC(N)=O)NC(=O)[C@H](Cc2ccc(O)cc2)NC(=O)[C@H]([C@@H](C)O)NC1=O | broth dilution | CGMCC strain | 24 h | 20 to 40 µM |
